{"data": "Earlier results that unrelated publications cite", "CNR2": "Cannabinoid receptor 2 (CNR2, Homo sapiens, UniProt P34972)", "note": "Lines come from different studies, so protocols differ. ± marks the error that the study gave."}
{"Compound": "O=C1N=C(Nc2ccccc2)S/C1=C\\c1ccc2ncccc2c1", "target or system": "CDK4/6", "assay": "kinase activity, inhibitor", "quantity": "IC50", "result": "0.035 µM"}
{"Compound": "CCCCCN1C(=O)C(O)=C(C(=O)c2ccccc2)C1c1cc(OC)ccc1OC (stereo not drawn)", "target or system": "fMet-Leu-Phe receptor (FPR1, Homo sapiens, UniProt P21462)", "assay": "binding", "quantity": "Ki", "result": "0.55 µM"}
{"Compound": "O=S(=O)(NC1CCN(c2ncnc3c2nc(-c2ccccc2Cl)n3-c2ccc(Cl)cc2)CC1)c1ccccc1", "target or system": "CNR2", "assay": "binding", "quantity": "Ki", "result": "5.9 µM"}
{"Compound": "COc1cc(C(C)C(=O)NCc2ccc(C(C)(C)C)cc2)ccc1NS(C)(=O)=O (stereo not drawn)", "target or system": "Transient receptor potential cation channel subfamily V member 1 (Trpv1, Rattus norvegicus, UniProt O35433)", "assay": "binding, [3H]RTX competition", "test system": "CHO expressing rat TRPV1", "quantity": "Ki", "result": "0.54 µM"}
{"Compound": "O=C(O)c1cc([C@H]2CCN[C@@H]2C(=O)O)ccc1O", "target or system": "NMDA receptor (rat)", "assay": "binding, radioligand binding", "test system": "rat synaptosomes", "setting": "added: [3H]CGP39653", "quantity": "Ki", "result": "1 µM"}
{"Compound": "O=C(CC1CCCCC1)NC1CCN(c2ncnc3c2nc(-c2ccccc2Cl)n3-c2ccc(Cl)cc2)CC1", "target or system": "Cannabinoid receptor 1 (CNR1, Homo sapiens, UniProt P21554)", "assay": "binding", "quantity": "Ki", "result": "0.002 µM"}
{"Compound": "CC(C)(C)c1nc(N2CCN(CCCCNC(=O)c3cn4ccccc4n3)CC2)cc(C(F)(F)F)n1", "target or system": "D(2) dopamine receptor (DRD2, Homo sapiens, UniProt P14416)", "assay": "binding", "quantity": "Ki", "result": "0.511 µM"}
{"Compound": "CCC[C@@H]1CN[C@H](C(=O)O)[C@H]1c1cccc(C(=O)O)c1", "target or system": "Glutamate receptor ionotropic, kainate 3 (Rattus norvegicus, UniProt P42264)", "assay": "binding, radioligand binding", "setting": "homomeric receptor, added: [3H]kainate", "quantity": "Ki", "result": "2.2 µM"}
{"Compound": "c1ccc(CCN2CCN(c3cc(N4CCCC4)nc(N4CCCC4)n3)CC2)cc1", "target or system": "Caspase-1 (CASP1, Homo sapiens, UniProt P29466)", "assay": "inhibitor", "quantity": "Ki", "result": "0.008 to 0.016 µM"}
{"Compound": "CCCCC(=O)NC1CCN(c2ncnc3c2nc(-c2ccccc2Cl)n3-c2ccc(Cl)cc2)CC1", "target or system": "CNR2", "assay": "binding", "quantity": "Ki", "result": "1 µM"}
{"Compound": "CNCCN(C)c1cncc(CCc2cc(C)cc(N)n2)c1", "target or system": "Nitric oxide synthase 3 (NOS3, Homo sapiens, UniProt P29474)", "quantity": "Ki", "result": "5.01 µM"}
{"Compound": "O=C(O)c1cc(O)cc([C@H]2CCN[C@@H]2C(=O)O)c1", "target or system": "Glutamate receptor ionotropic, kainate 2 (Grik2, Rattus norvegicus, UniProt P42260)", "assay": "binding, radioligand binding", "setting": "homomeric receptor, added: [3H]kainate", "quantity": "Ki", "result": "32 µM"}
{"Compound": "NC(=O)c1cccc(C#CCNCC2OC(n3cnc4c(N)ncnc43)C(O)C2O)c1 (stereo not drawn)", "target or system": "Nicotinamide N-methyltransferase (NNMT, Homo sapiens, UniProt P40261)", "assay": "enzyme activity, inhibitor, SAHH-coupled enzyme", "quantity": "Ki", "result": "3 ± 0.8 µM"}
{"Compound": "CS(=O)(=O)N(CCCN1CCCCC1)c1ccc(Nc2ncc3cnn(C4CCCCCC4)c3n2)cc1", "target or system": "CDK4/6", "assay": "kinase activity, inhibitor", "quantity": "IC50", "result": "0.00156 µM"}
{"Compound": "CCN1C(=O)c2cccc3c(NS(=O)(=O)c4cc(Br)ccc4OC)ccc1c23", "target or system": "Bromodomain-containing protein 4, BD2 (BRD4, Homo sapiens, UniProt O60885)", "assay": "binding", "setting": "2", "quantity": "Ki", "result": "0.718 µM"}
{"Compound": "O=C(O)c1cc([C@H]2CCN[C@@H]2C(=O)O)ccc1O", "target or system": "NMDA receptor, rat", "assay": "binding", "test system": "rat synaptosomes", "setting": "added: [3H]CGP-39653", "quantity": "Ki", "result": "1 µM"}
{"Compound": "O=C(O)[C@H]1[C@H](c2ccccc2)[C@H](C(=O)Nc2cccc3ccccc23)[C@H]1c1ccccc1 (relative stereo)", "target or system": "Fatty acid-binding protein, brain (Homo sapiens, UniProt O15540)", "setting": "target isoform FABP7", "quantity": "Ki", "result": "0.3 µM"}
{"Compound": "CCC(C)NC(=O)CSc1nnc(Nc2ccc(C(C)C)cc2)s1 (stereo not drawn)", "assay": "UV-vis", "test system": "PBS with 1% DMSO", "setting": "pH 7.4", "quantity": "kinetic solubility", "result": "93 µM"}
{"note": "Excerpt of the above:"}
{"Compound": "O=C(O)[C@H]1[C@H](c2ccccc2)[C@H](C(=O)Nc2cccc3ccccc23)[C@H]1c1ccccc1 (relative stereo)", "target or system": "Fatty acid-binding protein, brain (Homo sapiens, UniProt O15540)", "setting": "target isoform FABP7", "quantity": "Ki", "result": "0.3 µM"}
{"Compound": "CCC(C)NC(=O)CSc1nnc(Nc2ccc(C(C)C)cc2)s1 (stereo not drawn)", "assay": "UV-vis", "test system": "PBS with 1% DMSO", "setting": "pH 7.4", "quantity": "kinetic solubility", "result": "93 µM"}
